Results pooled from the literature.
± marks the error that the study gave.
1-phosphatidylinositol 4,5-bisphosphate phosphodiesterase gamma-1 residues 21-1215: 1-phosphatidylinositol 4,5-bisphosphate phosphodiesterase gamma-1, residues 21-1215 (Rattus norvegicus, UniProt P10686)
NTSR1: Neurotensin receptor type 1 (NTSR1, Homo sapiens, UniProt P30989)
C3ar1: C3a anaphylatoxin chemotactic receptor (C3ar1, Mus musculus, UniProt O09047)
TDP1: Tyrosyl-DNA phosphodiesterase 1 (TDP1, Homo sapiens, UniProt Q9NUW8)

CCOC(=O)Nc1ccc(NCc2ccc(F)cc2)nc1N
EC50 (1-phosphatidylinositol 4,5-bisphosphate phosphodiesterase gamma-1 residues 21-1215; enzyme activity, activator; lipid vesicles; 15 min preincubation, added: XY-69 substrate 0.5 µM): > 100 µM

CNc1ncnc2c1ncn2C1OC(CO)C(O)C1O (stereo not shown)
EC50 (Adenosine receptor A3 (ADORA3, Homo sapiens, UniProt P0DMS8, I253N); G protein activation, agonist): 0.069 µM

COc1cc2nc(C3CC3)nc(N3CCC(c4ccccc4OC)CC3)c2cc1OC
EC50 (NTSR1; β-arrestin recruitment, agonist): 13 µM

Nc1ncnc2c1ncn2[C@@H]1O[C@H](COP(=O)(O)OP(=O)(O)OC[C@H]2OC(O)[C@H](O)[C@@H]2O)[C@@H](O)[C@H]1OP(=O)(O)O (stereo partly shown)
EC50 (TRPM2 (Nematostella vectensis, UniProt A7T1N0, E101C); agonist): 0.19 ± 0.008 µM

N[C@@H](Cc1c[nH]c2ccc(OCc3ccc(-c4cccs4)cc3)cc12)C(=O)O
EC50 (Large neutral amino acids transporter small subunit 1 (SLC7A5, Homo sapiens, UniProt Q01650); leucine uptake; HT-29; added: [3H]-L-leucine): 19.8 µM

COc1ccccc1C1CCN(c2nc(C3(F)CC3)nc3cc(Cl)c(N(C)CCO)cc23)CC1
EC50 (NTSR1; β-arrestin recruitment, agonist): 17.5 µM

CCc1cc(O)cc2c(/C=N/NC(=N)NCCc3ccc(Cl)cc3)c[nH]c12
EC50 (Relaxin-3 receptor 2 (RXFP4, Homo sapiens, UniProt Q8TDU9, V122A); agonist): 0.00759 µM

Cn1c(=O)[nH]c(=O)c2c1nc(CN1CCN(c3cccc(Cl)c3)CC1)n2Cc1cccc(Cl)c1
EC50 (1-phosphatidylinositol 4,5-bisphosphate phosphodiesterase gamma-1 residues 21-1215; enzyme activity, activator; lipid vesicles; 15 min preincubation, added: XY-69 substrate 0.5 µM): 28 µM

COc1ccccc1C1CCN(c2nc(C3(F)CC3)nc3c(Cl)cc(N(C)CCO)cc23)CC1
EC50 (NTSR1; β-arrestin recruitment, agonist): 3.64 µM

O=c1ccn([C@@H]2O[C@H](COP(=O)(O)CP(=O)(O)O)[C@@H](O)[C@H]2O)c(=S)[nH]1
EC50 (P2Y purinoceptor 14 (P2RY14, Homo sapiens, UniProt Q15391, V93A); calcium mobilisation, agonist; cells with Gαqi5; receptor mutant V93A): 0.214 ± 0.061 µM

O=C(NC[C@@H](Cc1ccc(F)cc1)N1CCC(O)(C(F)(F)F)CC1)C1(c2ccc(Cl)cc2)CCCC1
EC50 (Transient receptor potential cation channel subfamily A member 1 (TRPA1, Homo sapiens, UniProt O75762, V875P)): 5.3 µM

COc1ccccc1C1CCN(c2nc(C3CC3)nc3c(C)cc(N(C)CCO)cc23)CC1
EC50 (NTSR1; β-arrestin recruitment, agonist): 9.6 µM

COc1ccc(C(=O)c2c(C(=O)NCCCN(C)C)oc3ccc(Cl)cc3c2=O)cc1OC
EC50 (Growth hormone secretagogue receptor type 1 (GHSR, Homo sapiens, UniProt Q92847, P200A); intracellular Ca2+, agonist; HEK293T transiently transfected): 2.09 µM

CC(C)C[C@H](NC(=O)[C@@H](N)[C@@H](C)O)C(=O)N[C@@H](CCC(N)=O)C(=O)N1CCC[C@H]1C(=O)N1CCC[C@H]1C(=O)N[C@@H](C)C(=O)N[C@@H](CO)C(=O)N[C@@H](CO)C(=O)N[C@@H](CCCNC(=N)N)C(=O)N[C@@H](CCCNC(=N)N)C(=O)N[C@@H](CCCNC(=N)N)C(=O)N[C@@H](Cc1c[nH]cn1)C(=O)N[C@@H](Cc1ccccc1)C(=O)N[C@@H](Cc1c[nH]cn1)C(=O)N[C@@H](Cc1c[nH]cn1)C(=O)N[C@@H](C)C(=O)N[C@@H](CC(C)C)C(=O)N1CCC[C@H]1C(=O)N1CCC[C@H]1C(=O)N[C@@H](C)C(=O)N[C@@H](CCCNC(=N)N)C(=O)O
EC50 (C3ar1; GoA protein dissociation, agonist, NanoBiT): 0.0288 µM

COc1cc2nc(Cc3ccccc3)nc(N3CCN(c4ccccc4OC)CC3)c2cc1OC
EC50 (NTSR1; β-arrestin recruitment, agonist): 158 µM

CC(C)[C@H](NC(=O)[C@@H]1CSSC(C)(C)[C@H](NC(=O)[C@@H](N)CC(=O)O)C(=O)N[C@@H](Cc2ccccc2)C(=O)N[C@H](Cc2c[nH]c3ccccc23)C(=O)N[C@@H](CCCN)C(=O)N[C@@H](Cc2ccc(O)cc2)C(=O)N1)C(=O)O
EC50 (Urotensin-2 receptor (UTS2R, Homo sapiens, UniProt Q9UKP6); β-arrestin1 recruitment, agonist, BRET2; HEK293; 10 min): 0.0033 ± 0.003 µM

O=C(O)c1ccc(Nc2c(-c3ccc(CON=Cc4cccc(NC(=O)C(F)(F)F)c4)cc3)nc3cc(-c4ccccc4)ccn23)cc1 (mixture of isomers)
inhibition (TDP1; enzyme activity, inhibitor; 100 µM, unpurified compound): 53.8%

CC(C)C[C@H](NC(=O)[C@H](C)NC(=O)[C@H](CO)NC(=O)[C@@H]1CCCN1C(=O)[C@@H]1CCCN1C(=O)[C@H](CCC(N)=O)NC(=O)[C@H](CC(C)C)NC(=O)[C@@H](N)[C@@H](C)O)C(=O)N[C@@H](CCCNC(=N)N)C(=O)N[C@@H](CCCNC(=N)N)C(=O)N[C@@H](CCCNC(=N)N)C(=O)N[C@@H](Cc1c[nH]cn1)C(=O)N[C@@H](Cc1ccc(O)cc1)C(=O)N[C@@H](Cc1c[nH]cn1)C(=O)N[C@@H](Cc1c[nH]cn1)C(=O)N[C@@H](C)C(=O)N[C@@H](CC(C)C)C(=O)N1CCC[C@H]1C(=O)N1CCC[C@H]1C(=O)N[C@@H](CO)C(=O)N[C@@H](CCCNC(=N)N)C(=O)O
EC50 (C3ar1; cAMP response, agonist, GloSensor): 0.135 µM

CCCN(C)c1ccc2nc(C3CC3)nc(N3CCC(c4ccccc4OC)CC3)c2c1
EC50 (NTSR1; β-arrestin recruitment, agonist): 2.17 µM

C#Cc1nc(N2CCC(c3ccccc3OC)CC2)c2cc(N(C)CCO)ccc2n1
EC50 (NTSR1; β-arrestin recruitment, agonist): 175 µM

COc1ccc(OC[C@H]2c3cccn3CC(=O)N2Cc2cccc(F)c2)cc1
EC50 (Glutamate NMDA receptor; Grin1/Grin2c (Rattus norvegicus, UniProt P35439+Q00961); activator; cells): 0.8 µM

O=C(O)c1ccc(Nc2c(-c3ccccc3)nc3ccc(CON=Cc4ccc5c(c4)Cc4ccccc4-5)cn23)cc1
inhibition (TDP1; enzyme activity, inhibitor; 100 µM, unpurified compound): 82.5%

A few entries again:
CC(C)C[C@H](NC(=O)[C@@H](N)[C@@H](C)O)C(=O)N[C@@H](CCC(N)=O)C(=O)N1CCC[C@H]1C(=O)N1CCC[C@H]1C(=O)N[C@@H](C)C(=O)N[C@@H](CO)C(=O)N[C@@H](CO)C(=O)N[C@@H](CCCNC(=N)N)C(=O)N[C@@H](CCCNC(=N)N)C(=O)N[C@@H](CCCNC(=N)N)C(=O)N[C@@H](Cc1c[nH]cn1)C(=O)N[C@@H](Cc1ccccc1)C(=O)N[C@@H](Cc1c[nH]cn1)C(=O)N[C@@H](Cc1c[nH]cn1)C(=O)N[C@@H](C)C(=O)N[C@@H](CC(C)C)C(=O)N1CCC[C@H]1C(=O)N1CCC[C@H]1C(=O)N[C@@H](C)C(=O)N[C@@H](CCCNC(=N)N)C(=O)O
EC50 (C3ar1; GoA protein dissociation, agonist, NanoBiT): 0.0288 µM

O=C(O)c1ccc(Nc2c(-c3ccccc3)nc3ccc(CON=Cc4ccc5c(c4)Cc4ccccc4-5)cn23)cc1
inhibition (TDP1; enzyme activity, inhibitor; 100 µM, unpurified compound): 82.5%

CCc1cc(O)cc2c(/C=N/NC(=N)NCCc3ccc(Cl)cc3)c[nH]c12
EC50 (Relaxin-3 receptor 2 (RXFP4, Homo sapiens, UniProt Q8TDU9, V122A); agonist): 0.00759 µM
